Assay results from different studies.
Every numbered part comes from another study and shows a few of its results, in no order. Substitutions count along the parent as printed.

Sample 1
Target: Interferon regulatory factor 3, full length, phosphomimetic (IRF3, Homo sapiens, UniProt Q14653, residues 1-427, S386D/S396D/S398D/S402D/T404D/S405D)
Technique: protein-binding microarray
Form: double-stranded DNA, one strand shown
Sample: in vitro
Tested at: 2540 nM top
Setting: 60-bp whole probe
Together with: salmon DNA 0.4 mg/ml
Reference: random background probes
Direction: higher = stronger binding
Constant ends, left off below: GCCTAGCAC … GTCTTGATTCGCTTGACGCTGCTG
Residues (chain): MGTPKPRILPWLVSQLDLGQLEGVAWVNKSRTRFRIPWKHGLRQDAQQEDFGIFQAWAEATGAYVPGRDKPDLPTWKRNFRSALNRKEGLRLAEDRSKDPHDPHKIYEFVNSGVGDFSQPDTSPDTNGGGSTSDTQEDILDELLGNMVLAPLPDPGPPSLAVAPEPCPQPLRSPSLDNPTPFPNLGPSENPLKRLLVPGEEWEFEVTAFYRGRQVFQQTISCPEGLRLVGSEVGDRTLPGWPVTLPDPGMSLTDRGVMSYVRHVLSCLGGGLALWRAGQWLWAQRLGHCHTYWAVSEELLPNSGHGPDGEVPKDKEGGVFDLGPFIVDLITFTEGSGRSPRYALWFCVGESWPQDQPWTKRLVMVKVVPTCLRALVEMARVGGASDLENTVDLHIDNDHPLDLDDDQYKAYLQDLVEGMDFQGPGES
For `TTAGGATTCGGGTATCGGTTAGTGCTA`, “fitted relative affinity” read 1.4 z-score.
Under “fitted relative affinity”, `AACGGTATCCTTATCCTGACGTGCTAG` is recorded as 4.93 z-score.
For `TTAGATTTCGGGTATCGCTTAGTGCTA`, “fitted relative affinity” read 1.3 z-score.
`AACGATTTCAGACTGGAGACGTGCTAG`: “fitted relative affinity” 0.643 z-score.
For `TCTCTTTTCACTTTCTTTACGTGCTAG`, “fitted relative affinity” read 3.42 z-score.
Under “fitted relative affinity”, `TTAGGACTGCTACAGCTTTAGTGCTAG` is recorded as -0.67 z-score.
For `GACGGACTGGACACCGGGGACGTGCTA`, “fitted relative affinity” read -0.806 z-score.
Under “fitted relative affinity”, `CCAGGGCTGCCAGCCTCCTCGTGCTAG` is recorded as -0.909 z-score.
Under “fitted relative affinity”, `TTAGGTTTCCTTTTCCTTTAGTGCTAG` is recorded as 11.9 z-score.
For `TTAGGACTGGACGATCGGTTAGTGCTA`, “fitted relative affinity” read -0.394 z-score.
Under “fitted relative affinity”, `GAAGGACTGGGGACTGGGGACGTGCTA` is recorded as -1.31 z-score.
For `GACGATATCACTTTCGAGACGTGCTAG`, “fitted relative affinity” read 2.98 z-score.
Under “fitted relative affinity”, `CCATGTTGCAGACTCGAAGGGTGCTAG` is recorded as 1.89 z-score.
`TTAGGTATCGGTTTCGGTGAGTGCTAG`: “fitted relative affinity” 7.16 z-score.
For `GACTGTCTCGGTCTCGGGACGTGCTAG`, “fitted relative affinity” read 1.22 z-score.
Under “fitted relative affinity”, `TTAGGTATCGGGTTTCGGTTCGTGCTA` is recorded as 4.71 z-score.

Sample 2
Target: CCNF, cyclin fold, Cln2 fusion (human)
Technique: yeast growth competition, sequencing
Sample: yeast
Setting: strong parent motif
Reference: not given
Direction: higher = stronger binding
Starting sequence: CDC25A docking peptide (human); PPHRRRLLFACSP; partner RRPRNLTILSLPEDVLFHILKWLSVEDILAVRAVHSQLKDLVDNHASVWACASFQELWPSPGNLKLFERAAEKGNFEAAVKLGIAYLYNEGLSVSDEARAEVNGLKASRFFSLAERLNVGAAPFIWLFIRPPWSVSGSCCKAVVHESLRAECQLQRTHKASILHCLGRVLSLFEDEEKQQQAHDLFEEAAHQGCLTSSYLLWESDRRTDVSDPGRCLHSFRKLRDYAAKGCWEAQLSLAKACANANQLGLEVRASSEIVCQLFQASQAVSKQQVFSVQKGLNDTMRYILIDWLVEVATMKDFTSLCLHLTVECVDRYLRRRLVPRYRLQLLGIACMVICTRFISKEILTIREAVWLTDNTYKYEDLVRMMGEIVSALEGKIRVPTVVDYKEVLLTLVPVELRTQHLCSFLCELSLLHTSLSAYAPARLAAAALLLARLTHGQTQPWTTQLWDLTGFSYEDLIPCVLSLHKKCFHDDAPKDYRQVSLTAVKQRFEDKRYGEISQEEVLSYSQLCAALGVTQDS
Under “normalised enrichment score”, `R4F` is recorded as 3.15.
For `H3V`, “normalised enrichment score” read 9.28.
Under “normalised enrichment score”, `L8D` is recorded as 7.8.
Under “normalised enrichment score”, `H3W` is recorded as 6.95.
`R5D`: “normalised enrichment score” 0.592.
`R4W` — result for “normalised enrichment score”: 2.67.
Under “normalised enrichment score”, `H3P` is recorded as 9.17.
`R5A R6A L7A L8A`: “normalised enrichment score” -0.0552.
`C11S` — result for “normalised enrichment score”: 7.33.
`P2Y` — result for “normalised enrichment score”: 6.35.
Under “normalised enrichment score”, `A10C` is recorded as 7.22.

Sample 3
Target: ABI1, truncated, D143A, DHFR fusion (Arabidopsis thaliana)
Technique: DHFR PCA, deep sequencing
Sample: yeast
Setting: methotrexate growth selection, single substitutions
Together with: (+)-ABA 58 µM
Reference: wild-type fitted maximum
Direction: higher = stronger binding
Starting sequence: PYL1, truncated, DHFR fusion (Arabidopsis thaliana); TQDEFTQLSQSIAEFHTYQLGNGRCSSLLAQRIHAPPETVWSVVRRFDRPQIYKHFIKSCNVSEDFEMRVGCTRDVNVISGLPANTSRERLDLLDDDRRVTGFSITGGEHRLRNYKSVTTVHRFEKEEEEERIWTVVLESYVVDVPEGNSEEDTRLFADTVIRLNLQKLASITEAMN
Under “relative binding score”, `D92V` is recorded as 41.2%.
Under “relative binding score”, `I33F` is recorded as -5.86%.
For `H16I`, “relative binding score” read -0.761%.
Under “relative binding score”, `G21F` is recorded as 74.7%.
`Q10D`: “relative binding score” 96%.
Under “relative binding score”, `N22S` is recorded as 93.1%.
`S87T`: “relative binding score” 48.7%.
`S80C`: “relative binding score” 7.26%.
Under “relative binding score”, `V70H` is recorded as 49.6%.
`Q31W` — result for “relative binding score”: 49%.
Under “relative binding score”, `E152A` is recorded as 82.7%.
Under “relative binding score”, `R32Q` is recorded as 88.1%.
For `D65Y`, “relative binding score” read 67.9%.
`C60F` — result for “relative binding score”: 6.64%.
For `S87C`, “relative binding score” read 42.9%.

Sample 4
Target: RING finger protein unkempt homolog, zinc fingers 1-6, GST-SBP tag (UNK, Homo sapiens, UniProt Q9C0B0, residues 30-357)
Technique: RNA Bind-n-Seq
Form: RNA
Sample: in vitro
Tested at: not given
Setting: RNA with constant flanks, human and mouse sites, ends assumed
Reference: input RNA pool
Direction: higher = stronger binding
Constant ends, left off below: GGGAGUUCUACAGUCCGACGAUC … CAACAGAGGAUUGAGCAUCA
Residues (chain): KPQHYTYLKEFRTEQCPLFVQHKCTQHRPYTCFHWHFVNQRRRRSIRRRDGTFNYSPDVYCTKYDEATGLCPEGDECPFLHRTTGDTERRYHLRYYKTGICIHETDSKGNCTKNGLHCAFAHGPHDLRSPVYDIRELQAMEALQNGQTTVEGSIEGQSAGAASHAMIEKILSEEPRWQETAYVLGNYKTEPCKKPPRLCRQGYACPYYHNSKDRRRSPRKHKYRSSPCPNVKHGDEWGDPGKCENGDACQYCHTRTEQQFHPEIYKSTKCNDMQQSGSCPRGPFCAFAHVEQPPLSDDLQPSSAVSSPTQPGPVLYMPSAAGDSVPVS
`AGUCGAGGCGCAACAAGACCCAACGGGCCAAAUACGGGAAAUAAAAUAUGCCAGUUCAAACUAGUACUUCUGGGAGAGUCCGCUGUUGGCAAAUCAAGCCUAGUGCUUCGUUUUGUGAAA` gave a bound/input enrichment of 0.275 ratio.
`UCAGAAGGGCAGCUCGGCUUAGGCCAUACCAACCAUGUUCGAGAACCAACCCUGGUAACAGGUCUGCAAGGGAAAAAUGUUCGGCAGAUCUCGGCUGGCCGCUGCCACAGUGCUGCAUGG` has a bound/input enrichment of 0.093 ratio.
`GCCGUUAUUAAACGAUUGAUUAGUGUCUUAAACAAAAGCACGGGUGAAGUCACAAAGAAAAAGCCUAAGUUUUUGACUAAAGGCCAGAAUGCAUUGGUAGAGCUACAGACACAAAGACCA` has a bound/input enrichment of 0.161 ratio.
For `GAACUGGGUGACCACGUGACCAACUUACGCAAGAUGGGUGCCCCUGAAGCUGGCAUGGCAGAAUAUCUCUUUGACAAGCACACCCUGGGACACGGUGAUGAGAGCUAAGCUGACUUCCCC`, the bound/input enrichment was 0.0684 ratio.
The bound/input enrichment of `UUGUGUAGAAGAUGGACUCUGAAAGACAUUCCAAGAGUGCCGCGGCAGCAUGGGAGCCUCUUAGUGAUUGUGUCAGUAUUAUUGUGGAAGAUUGCCUUUGCUGUUGUAUGUAAAGUUUCA` is reported as 0.642 ratio.
With `UGUCUGACUUGCUGCUCCAGGGAUGUCAUAGUUAAAGUUGACCAGAUCUGUCACAAAAAUAGCAUCAAGUUCUUUACAGGAGAUGUUUUUGGCUACCAUGGAUACACAUUUGCCAAUCUA` the bound/input enrichment was 0.172 ratio.
For `CCAGUUCUCAUUUCAGCUAUGAAGAUUUUUGUAACAACUAAAAACUCAAAAAACCAAGGCAUAGAGGAAGCUUUAAAAAAUCGCAAUUUUACUGUAGAAAAAAUGAGUGCUGAAAUUAAU`, the bound/input enrichment was 0.209 ratio.

For quick reference, copied from above (sample 1):
For `TCTCTTTTCACTTTCTTTACGTGCTAG`, “fitted relative affinity” read 3.42 z-score.
Under “fitted relative affinity”, `TTAGGACTGCTACAGCTTTAGTGCTAG` is recorded as -0.67 z-score.
For `GACGGACTGGACACCGGGGACGTGCTA`, “fitted relative affinity” read -0.806 z-score.
Under “fitted relative affinity”, `CCAGGGCTGCCAGCCTCCTCGTGCTAG` is recorded as -0.909 z-score.
Under “fitted relative affinity”, `TTAGGTTTCCTTTTCCTTTAGTGCTAG` is recorded as 11.9 z-score.
